# Experimental data pooled from the literature.
# Numbers after ± are the reported error.
# Chain of UniProt P11387 (whole entry, looked up): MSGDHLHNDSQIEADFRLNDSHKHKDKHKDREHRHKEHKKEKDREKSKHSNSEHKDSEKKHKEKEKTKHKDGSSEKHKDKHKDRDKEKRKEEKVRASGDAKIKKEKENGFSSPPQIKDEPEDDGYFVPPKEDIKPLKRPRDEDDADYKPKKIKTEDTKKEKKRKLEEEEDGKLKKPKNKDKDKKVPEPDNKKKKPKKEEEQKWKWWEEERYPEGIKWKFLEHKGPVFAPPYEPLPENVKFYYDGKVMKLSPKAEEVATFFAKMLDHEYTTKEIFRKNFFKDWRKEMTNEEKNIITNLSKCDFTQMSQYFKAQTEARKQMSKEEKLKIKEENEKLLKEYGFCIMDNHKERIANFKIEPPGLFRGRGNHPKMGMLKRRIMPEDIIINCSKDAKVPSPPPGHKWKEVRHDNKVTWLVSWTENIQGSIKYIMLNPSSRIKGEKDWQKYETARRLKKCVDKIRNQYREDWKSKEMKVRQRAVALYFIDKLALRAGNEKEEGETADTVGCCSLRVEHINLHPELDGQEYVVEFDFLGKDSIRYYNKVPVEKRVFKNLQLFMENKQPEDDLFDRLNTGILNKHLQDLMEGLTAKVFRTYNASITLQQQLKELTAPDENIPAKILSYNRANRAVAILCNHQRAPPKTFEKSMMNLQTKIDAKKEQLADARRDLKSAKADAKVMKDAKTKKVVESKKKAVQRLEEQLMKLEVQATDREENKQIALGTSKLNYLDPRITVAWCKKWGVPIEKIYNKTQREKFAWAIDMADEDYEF
Structure (SMILES),target or system,test,test system,conditions,how to read,endpoint,result
CCCOC(=O)N1c2cc(CNC)ccc2[C@H](NC(=O)C(=O)Nc2ccc(Cl)c(F)c2)[C@H]1CNC(=N)N,Human immunodeficiency virus 1,"viral infection, Env pseudovirus","TZM-bl, ZM53M.PB12 clade C",,,IC50,3.62 µM
C1=[N+]2CCC[N+]3=Cc4ccc5[n]4[Au-]23[n]2c1ccc2-c1nc2ccccc2nc1-5.F[P-](F)(F)(F)(F)F,"DNA topoisomerase 1 (TOP1, Homo sapiens, UniProt P11387)",PicoGreen fluorescence,,0.1 and 1 µM,,TOP1 inhibition,positive
CNCc1ccc2c(c1)C[C@H](CNC(=N)N)[C@H]2NC(=O)C(=O)Nc1ccc(Cl)c(F)c1,Human immunodeficiency virus 1,"viral infection, Env pseudovirus","TZM-bl, REJO4541.67 clade B",,,IC80,0.624 µM
C[C@H](Nc1ncnc(N)c1C#N)c1c(-c2ccccc2)[nH]c2c(Cl)cccc2c1=O,WSU-NHL,annexin V flow cytometry,,0.03 µM,baseline: untreated,apoptotic cells,3.1 fold
CC(=O)NCCN(CC(=O)NCCN(CC(=O)NCCN(CC(=O)NCCC(N)=O)C(=O)[C@@H](N)CCCCN)C(=O)[C@@H](N)Cc1ccccc1)C(=O)[C@@H](N)Cc1ccccc1,HIV-1 TAR RNA,,,"concentration not given, 25 °C",,binding entropy term TΔS°,-4.35 ± 0.335 kcal/mol
F[P-](F)(F)(F)(F)F.OC(Cn1cncn1)(Cn1cc(-[c-]2cccc2)nn1)c1ccc(F)cc1F.[Co+3].c1cc[cH-]c1 (racemic),Vero,"cell growth or viability, MTT",,24 h,,IC50,195 µM
CCCCCCCCCCCCCCCC(=O)N[C@@H](CCC(=O)NCCOCCOCCC(=O)NCCOCCOCCC(=O)NCCCC[C@H](NC(=O)[C@H](CC(=O)O)NC(=O)[C@H](CC(C)C)NC(=O)[C@H](Cc1ccc(O)cc1)NC(=O)[C@H](CCCCN)NC(=O)[C@H](CO)NC(=O)[C@H](Cc1ccc(O)cc1)NC(=O)[C@H](CC(=O)O)NC(=O)[C@H](CO)NC(=O)[C@@H](NC(=O)[C@H](Cc1ccccc1)NC(=O)[C@@H](NC(=O)CNC(=O)[C@H](CCC(N)=O)NC(=O)[C@@H](CO)NC(=O)[C@@H](N)Cc1c[nH]cn1)[C@@H](C)O)[C@@H](C)O)C(=O)N[C@@H](CCCNC(=N)N)C(=O)N[C@@H](CCCNC(=N)N)C(=O)N[C@@H](C)C(=O)N[C@@H](CCC(N)=O)C(=O)N[C@@H](CC(=O)O)C(=O)N[C@@H](Cc1ccccc1)C(=O)N[C@H](C(=O)N[C@@H](CCC(N)=O)C(=O)N[C@@H](Cc1c[nH]c2ccccc12)C(=O)N[C@@H](CC(C)C)C(=O)N[C@@H](CC(C)C)C(=O)N[C@@H](CC(N)=O)C(=O)N[C@H](C(=O)NCC(=O)NCC(=O)N1CCC[C@H]1C(=O)N[C@@H](CO)C(=O)N[C@@H](CO)C(=O)NCC(=O)N[C@@H](C)C(=O)N1CCC[C@H]1C(=O)N1CCC[C@H]1C(=O)N1CCC[C@H]1C(=O)N[C@@H](CO)C(N)=O)[C@@H](C)O)C(C)C)C(=O)O,,,male rhesus monkeys,"20 µg/kg, day 28",,Cmax,25.4 ng/mL
CC(=O)NCCN(CC(=O)NCCN(CC(=O)NCCN(CC(=O)NCCC(N)=O)C(=O)[C@@H](N)CCCNC(=N)N)C(=O)[C@@H](N)CCCNC(=N)N)C(=O)[C@@H](N)Cc1ccccc1,HIV-1 TAR RNA,,,"concentration not given, 25 °C",,binding enthalpy ΔH°,-14.4 ± 0.43 kcal/mol

# Some of these lines once more:
Structure (SMILES),target or system,test,test system,conditions,how to read,endpoint,result
CC(=O)NCCN(CC(=O)NCCN(CC(=O)NCCN(CC(=O)NCCC(N)=O)C(=O)[C@@H](N)CCCNC(=N)N)C(=O)[C@@H](N)CCCNC(=N)N)C(=O)[C@@H](N)Cc1ccccc1,HIV-1 TAR RNA,,,"concentration not given, 25 °C",,binding enthalpy ΔH°,-14.4 ± 0.43 kcal/mol
